Measured values of several laboratories.
Lines come from different studies, so protocols differ. Several values in a cell are separate wells, animals, samples, runs or records.
Target: Serine/threonine-protein kinase N1 (PKN1, Homo sapiens, UniProt Q16512)

| SMILES | assay | test system | conditions | scale | quantity | value |
| --- | --- | --- | --- | --- | --- | --- |
| CCn1cc(C(=O)O)c(=O)c2c(N)c(F)c(NC3CCCCC3)cc21 | kinase activity | – | 0.1 µM, added: ATP at Km | – | inhibition | -8.4% |
| C=CC(=O)N1CCCC(n2c(=O)c3ncccc3n(Cc3ccc(Oc4ccccc4)cc3)c2=O)C1 (centres unmarked) | cell-free assay, competition with immobilised ligand | – | 1 µM | – | remaining binding | 86% |
| CNC(=O)C[C@H](Cc1ccc(C#N)cc1)NC(=O)c1cc(-c2ccc(CN[C@H](C)c3ccc(C)cc3)o2)ccc1Cl | enzyme activity, inhibitor | – | 1 µM | – | activity vs control | 91% |
| N[C@H]1CC[C@H](Nc2nccc(-c3cccnc3Oc3ccc(NC(=O)NC4CC4)c4ccccc34)n2)CC1 | kinobead competition pulldown | HEK293/HCT116 lysate mixture | 10 µM, 1 h, 4 °C | lower = stronger competition | log2 LFQ intensity | 22.3 and 22.4 and 22.7 |
| C=CC(=O)N1CCc2ccc(-n3c(=O)ccc4cnc5ccc(-c6cnn(C)c6)cc5c43)cc21 | KINOMEscan | – | 1 µM | baseline: DMSO control | remaining binding | 100% |
| COCC12C(=O)NC3C4(C(OC)CC1O)C1CC5(O)C(OC)C(O)C(OC(C)=O)(C1C5OC(=O)c1ccccc1)C3(O)C(OC)C24 (centres unmarked) | kinase activity, inhibitor, ProQinase kinase profiling | – | 25 µM | baseline: control | remaining activity | 104% and 97% |
| C=CC(=O)Nc1cccc(-c2cnc3[nH]cc(C(=O)NC(C)(C)C)c3n2)c1 | kinase activity | – | 0.1 µM | – | inhibition | -8% and -2% |
| Cc1cccc(O[C@H]2CCC[C@@H](C(C)CNCc3ccncc3)C2)c1 (relative stereo) | enzyme activity, inhibitor | – | 1 µM | – | inhibition | -2% |
| CN1CC[C@@H](COc2cnc(C#N)cc2-c2ccn3nc(NC(=O)C4CC4)cc3c2)C1 | enzyme activity, inhibitor | – | 1 µM | – | inhibition | 3% |
| Cc1cnc2nc1Nc1cccc(c1)COC/C=C/COCc1cc(ccc1OCCN1CCOCC1)N2 | binding | – | 0.1 µM | – | remaining binding | 91% |
| NC(=O)[C@@H](O)C[C@H]1CCc2sc3ncnc(O[C@H]4CC[C@H](N5CCOCC5)CC4)c3c21 | enzyme activity, inhibitor | – | 10 µM | – | inhibition | 9% |
| CC(C)=CC1OC(C)(C)C2C=C3C(=O)C(Cl)=CC(O)C3C3C(O)C4OC4C(=O)C132 (centres unmarked) | cell-free assay, competition with immobilised ligand | – | 10 µM | – | remaining binding | 96% |
| CS(=O)(=O)Nc1cccc(-c2csc3cnc(Nc4ccc(N5CCN(CCCCCOc6cccc7c6C(=O)N(C6CCC(=O)NC6=O)C7=O)CC5)cc4)nc23)c1 (centres unmarked) | probe labelling, inhibitor, KiNativ chemoproteomics | MOLT-4 | 1 µM | – | inhibition | -21.2% |
| COc1cc(Nc2nc(C)cc(-c3cnn4nc(OC)ccc34)n2)cc(C(F)(F)F)c1 | inhibitor | – | 1 µM | baseline: control | remaining activity | 94% |
